Published values gathered from unrelated publications.
Each line is one published result; not all experiments were run side by side. Numbers after ± are the reported error.

With `N=C(N)NCCC[C@@H]1NC(=O)[C@H](CCCCNC(=O)CC[C@H](NC(=O)CC[C@H](NC(=O)CN2CCN(CC(=O)O)CCN(CC(=O)O)CCN(CC(=O)O)CC2)C(=O)N[C@@H](CCC(=O)NCCCC[C@@H]2NC(=O)[C@@H](Cc3ccccc3)NC(=O)[C@H](CC(=O)O)NC(=O)CNC(=O)[C@H](CCCNC(=N)N)NC2=O)C(=O)NCCCC[C@@H]2NC(=O)[C@@H](Cc3ccccc3)NC(=O)[C@H](CC(=O)O)NC(=O)CNC(=O)[C@H](CCCNC(=N)N)NC2=O)C(=O)NCCCC[C@@H]2NC(=O)[C@@H](Cc3ccccc3)NC(=O)[C@H](CC(=O)O)NC(=O)CNC(=O)[C@H](CCCNC(=N)N)NC2=O)NC(=O)[C@@H](Cc2ccccc2)NC(=O)[C@H](CC(=O)O)NC(=O)CNC1=O` [indium-111 labelled] the tissue uptake was 0.75 ± 0.09 %ID/g (female athymic nu/nu mice, bone; intravenous, 72 h).
`CCCC[C@H](NC(=O)CNC(=O)CNC(=O)CN1CCN(CC(=O)O)CCN(CC(=O)O)CC1)C(=O)N[C@H]1CC(=O)NCCCC[C@@H](C(N)=O)NC(=O)[C@H](Cc2c[nH]c3ccccc23)NC(=O)[C@H](CCCNC(=N)N)NC(=O)[C@@H](Cc2ccccc2)NC(=O)[C@H](Cc2c[nH]cn2)NC1=O` [technetium-99m labelled] has a tissue uptake of 0.19 ± 0.25 %ID/g (C57 mouse, spleen; iv, 0.037 MBq, 24 h).
With `CC(C)C[C@H](NC(=O)[C@H](Cc1ccc(O)cc1)NC(=O)[C@@H](CCCNC(=N)N)NC(=O)[C@@H](CO)NC(=O)[C@H](Cc1ccccc1)NC(=O)[C@H](CC1CCCCC1)NC(=O)[C@H](CC(=O)O)NC(=O)CN1CCCN2CCN(CCCN(CC(=O)O)CC2)CC1)C(=O)N[C@@H](Cc1c[nH]c2ccccc12)C(=O)N[C@@H](CO)C(=O)O` [copper-64 labelled] the tissue uptake was 1.1 ± 0.4 %ID/g (female NMRI nude mice, stomach; 22 h p.i.).
`CCCC[C@H](NC(=O)CCCCCCCNC(=O)CN1CCN(CC(=O)O)CCN(CC(=O)O)CC1)C(=O)N[C@H]1CC(=O)NCCCC[C@@H](C(N)=O)NC(=O)[C@H](Cc2c[nH]c3ccccc23)NC(=O)[C@H](CCCNC(=N)N)NC(=O)[C@@H](Cc2ccccc2)NC(=O)[C@H](Cc2c[nH]cn2)NC1=O` [copper-64 labelled] has a tissue uptake of 0.18 ± 0.05 %ID/g (C57 mice, heart; intravenous, 0.37 MBq, 2 h).
For `CC(C)C[C@H](NC(=O)[C@@H](CCCCNC(=O)CCCCCNC(=O)CN1CCN(CC(=O)O)CCN(CC(=O)O)CCN(CC(=O)O)CC1)NC(=O)[C@H](Cc1ccc(O)cc1)NC(=O)[C@H](CO)NC(=O)[C@H](Cc1c[nH]c2ccccc12)NC(=O)[C@H](Cc1cnc[nH]1)NC(=O)[C@@H]1CCC(=O)N1)C(=O)N[C@@H](CCCNC(=N)N)C(=O)N1CCC[C@H]1C(=O)NCC(N)=O` [indium-111 labelled], the tissue uptake was 0.03 ± 0.03 %ID/g (female athymic nude mouse, muscle; intravenous, 0.037 MBq, 2 h).
With `CCCC[C@H](NC(=O)CNC(=O)CNC(=O)CN1CCN(CC(=O)O)CCN(CC(=O)O)CCN(CC(=O)O)CC1)C(=O)N[C@H]1CC(=O)NCCCC[C@@H](C(N)=O)NC(=O)[C@H](Cc2c[nH]c3ccccc23)NC(=O)[C@H](CCCNC(=N)N)NC(=O)[C@@H](Cc2ccccc2)NC(=O)[C@H](Cc2c[nH]cn2)NC1=O` [lutetium-177 labelled] the tissue uptake was 4.75 ± 1.03 %ID/g (C57 mouse, female, kidneys; intravenous, 0.037 MBq, 24 h).
`N=C(N)NCCC[C@@H]1NC(=O)[C@H](CCCCNC(=O)CNC(=O)CNC(=O)CNC(=O)CC[C@H](NC(=O)CNC(=O)CNC(=O)CNC(=O)CC[C@H](NC(=O)CN2CCN(CC(=O)O)CCN(CC(=O)O)CCN(CC(=O)O)CC2)C(=O)NCC(=O)NCC(=O)NCC(=O)N[C@@H](CCC(=O)NCC(=O)NCC(=O)NCC(=O)NCCCC[C@@H]2NC(=O)[C@@H](Cc3ccccc3)NC(=O)[C@H](CC(=O)O)NC(=O)CNC(=O)[C@H](CCCNC(=N)N)NC2=O)C(=O)NCC(=O)NCC(=O)NCC(=O)NCCCC[C@@H]2NC(=O)[C@@H](Cc3ccccc3)NC(=O)[C@H](CC(=O)O)NC(=O)CNC(=O)[C@H](CCCNC(=N)N)NC2=O)C(=O)NCC(=O)NCC(=O)NCC(=O)NCCCC[C@@H]2NC(=O)[C@@H](Cc3ccccc3)NC(=O)[C@H](CC(=O)O)NC(=O)CNC(=O)[C@H](CCCNC(=N)N)NC2=O)NC(=O)[C@@H](Cc2ccccc2)NC(=O)[C@H](CC(=O)O)NC(=O)CNC1=O` [indium-111 labelled] gave a tissue uptake of 8.31 ± 2.14 %ID/g (female athymic nu/nu mice, intestine; intravenous, 72 h).
`CCCC[C@H](NC(=O)COCCOCCNC(=O)CN1CCN(CC(=O)O)CCN(CC(=O)O)CC1)C(=O)N[C@H]1CC(=O)NCCCC[C@@H](C(N)=O)NC(=O)[C@H](Cc2c[nH]c3ccccc23)NC(=O)[C@H](CCCNC(=N)N)NC(=O)[C@@H](Cc2ccccc2)NC(=O)[C@H](Cc2c[nH]cn2)NC1=O` [copper-64 labelled] has a tissue uptake of 0.01 ± 0.01 %ID/g (C57 mice, pancreas; intravenous, 0.37 MBq, 24 h).
The tissue uptake of `N=C(N)NCCC[C@@H]1NC(=O)[C@H](CCCCNC(=O)CNC(=O)CNC(=O)CNC(=O)CC[C@H](NC(=O)CNC(=O)CNC(=O)CNC(=O)CN2CCN(CC(=O)O)CCN(CC(=O)O)CCN(CC(=O)O)CC2)C(=O)NCC(=O)NCC(=O)NCC(=O)NCCCC[C@@H]2NC(=O)[C@@H](Cc3ccccc3)NC(=O)[C@H](CC(=O)O)NC(=O)CNC(=O)[C@H](CCCNC(=N)N)NC2=O)NC(=O)[C@@H](Cc2ccccc2)NC(=O)[C@H](CC(=O)O)NC(=O)CNC1=O` [copper-64 labelled] is reported as 3.01 ± 0.51 %ID/g (athymic nu/nu mouse, female, liver; intravenous, 1 h).
The tissue uptake of `N=C(N)NCCC[C@@H]1NC(=O)[C@H](CCCCNC(=O)CNC(=O)CNC(=O)CNC(=O)CC[C@H](NC(=O)CNC(=O)CNC(=O)CNC(=O)CN2CCN(CC(=O)O)CCN(CC(=O)O)CCN(CC(=O)O)CC2)C(=O)NCC(=O)NCC(=O)NCC(=O)NCCCC[C@@H]2NC(=O)[C@@H](Cc3ccccc3)NC(=O)[C@H](CC(=O)O)NC(=O)CNC(=O)[C@H](CCCNC(=N)N)NC2=O)NC(=O)[C@@H](Cc2ccccc2)NC(=O)[C@H](CC(=O)O)NC(=O)CNC1=O` [indium-111 labelled] is reported as 0.13 ± 0.03 %ID/g (female athymic nu/nu mice, brain; intravenous, 0.5 h).

Repeated from above:
For `CC(C)C[C@H](NC(=O)[C@@H](CCCCNC(=O)CCCCCNC(=O)CN1CCN(CC(=O)O)CCN(CC(=O)O)CCN(CC(=O)O)CC1)NC(=O)[C@H](Cc1ccc(O)cc1)NC(=O)[C@H](CO)NC(=O)[C@H](Cc1c[nH]c2ccccc12)NC(=O)[C@H](Cc1cnc[nH]1)NC(=O)[C@@H]1CCC(=O)N1)C(=O)N[C@@H](CCCNC(=N)N)C(=O)N1CCC[C@H]1C(=O)NCC(N)=O` [indium-111 labelled], the tissue uptake was 0.03 ± 0.03 %ID/g (female athymic nude mouse, muscle; intravenous, 0.037 MBq, 2 h).
